{"data": "Published values collected from several papers", "note": "Compare with care: the assays were run in different laboratories. ± gives the spread as reported.", "sequence of UniProt Q99873 (whole entry, looked up)": "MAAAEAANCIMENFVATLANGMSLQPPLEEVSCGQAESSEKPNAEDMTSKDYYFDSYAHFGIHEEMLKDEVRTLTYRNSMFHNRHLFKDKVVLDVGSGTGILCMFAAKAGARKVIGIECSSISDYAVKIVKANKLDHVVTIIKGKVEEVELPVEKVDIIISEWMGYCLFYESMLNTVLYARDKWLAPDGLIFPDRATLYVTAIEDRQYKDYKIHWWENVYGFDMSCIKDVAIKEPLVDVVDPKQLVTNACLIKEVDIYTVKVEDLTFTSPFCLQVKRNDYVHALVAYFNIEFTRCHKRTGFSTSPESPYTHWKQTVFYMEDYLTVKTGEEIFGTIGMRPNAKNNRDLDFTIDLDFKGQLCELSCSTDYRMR", "sequence of UniProt P30101 (whole entry, looked up)": "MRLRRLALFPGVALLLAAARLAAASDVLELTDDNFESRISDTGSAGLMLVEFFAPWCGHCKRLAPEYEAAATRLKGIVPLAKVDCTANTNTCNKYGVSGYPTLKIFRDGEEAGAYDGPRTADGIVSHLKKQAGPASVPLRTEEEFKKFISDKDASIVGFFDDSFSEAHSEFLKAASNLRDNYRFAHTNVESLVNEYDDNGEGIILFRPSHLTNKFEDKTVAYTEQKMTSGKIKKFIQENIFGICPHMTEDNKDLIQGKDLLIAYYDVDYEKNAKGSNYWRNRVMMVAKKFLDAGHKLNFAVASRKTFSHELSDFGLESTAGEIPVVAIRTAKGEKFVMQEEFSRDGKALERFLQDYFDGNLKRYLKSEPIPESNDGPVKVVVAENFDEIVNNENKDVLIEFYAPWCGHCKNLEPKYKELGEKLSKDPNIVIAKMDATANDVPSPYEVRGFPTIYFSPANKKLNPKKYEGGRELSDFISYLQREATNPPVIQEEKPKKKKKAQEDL", "sequence of UniProt P48735 (whole entry, unmodified, looked up)": "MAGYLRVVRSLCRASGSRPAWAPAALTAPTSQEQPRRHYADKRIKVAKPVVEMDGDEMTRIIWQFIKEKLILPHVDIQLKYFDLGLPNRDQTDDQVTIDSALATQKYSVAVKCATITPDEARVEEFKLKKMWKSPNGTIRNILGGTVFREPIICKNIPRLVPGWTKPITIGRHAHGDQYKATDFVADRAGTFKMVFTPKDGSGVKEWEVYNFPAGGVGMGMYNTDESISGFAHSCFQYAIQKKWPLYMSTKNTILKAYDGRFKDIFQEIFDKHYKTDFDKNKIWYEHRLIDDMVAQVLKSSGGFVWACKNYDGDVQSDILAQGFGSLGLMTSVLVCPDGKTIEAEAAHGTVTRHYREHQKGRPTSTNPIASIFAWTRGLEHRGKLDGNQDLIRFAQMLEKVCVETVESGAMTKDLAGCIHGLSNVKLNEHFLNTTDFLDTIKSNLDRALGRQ", "sequence of UniProt Q2M2I8 (whole entry, looked up)": "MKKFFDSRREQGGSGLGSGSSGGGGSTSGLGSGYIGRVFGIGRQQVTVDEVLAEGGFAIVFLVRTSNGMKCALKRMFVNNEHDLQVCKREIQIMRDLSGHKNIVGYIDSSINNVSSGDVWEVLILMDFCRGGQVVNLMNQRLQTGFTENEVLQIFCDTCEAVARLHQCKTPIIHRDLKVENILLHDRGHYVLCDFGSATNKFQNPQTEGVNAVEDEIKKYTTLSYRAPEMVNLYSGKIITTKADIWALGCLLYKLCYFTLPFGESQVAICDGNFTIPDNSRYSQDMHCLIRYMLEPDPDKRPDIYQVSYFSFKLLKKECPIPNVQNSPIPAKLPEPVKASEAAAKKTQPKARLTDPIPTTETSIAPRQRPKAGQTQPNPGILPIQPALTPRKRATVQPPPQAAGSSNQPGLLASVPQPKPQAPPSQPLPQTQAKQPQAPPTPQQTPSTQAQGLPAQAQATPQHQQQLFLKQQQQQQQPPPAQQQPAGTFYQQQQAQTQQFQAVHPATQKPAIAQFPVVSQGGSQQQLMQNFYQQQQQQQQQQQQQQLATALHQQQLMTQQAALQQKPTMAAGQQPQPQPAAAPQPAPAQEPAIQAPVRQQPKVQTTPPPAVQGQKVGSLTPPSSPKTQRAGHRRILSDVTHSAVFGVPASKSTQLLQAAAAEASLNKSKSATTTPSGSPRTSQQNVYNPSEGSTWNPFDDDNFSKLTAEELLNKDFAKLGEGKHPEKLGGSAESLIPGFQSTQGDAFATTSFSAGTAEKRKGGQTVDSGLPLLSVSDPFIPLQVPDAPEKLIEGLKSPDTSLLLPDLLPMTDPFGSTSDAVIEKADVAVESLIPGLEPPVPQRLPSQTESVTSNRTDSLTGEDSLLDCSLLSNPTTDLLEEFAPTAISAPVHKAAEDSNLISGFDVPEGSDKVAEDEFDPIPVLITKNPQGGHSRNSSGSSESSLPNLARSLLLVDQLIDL", "sequence of UniProt P49327 (whole entry, looked up)": "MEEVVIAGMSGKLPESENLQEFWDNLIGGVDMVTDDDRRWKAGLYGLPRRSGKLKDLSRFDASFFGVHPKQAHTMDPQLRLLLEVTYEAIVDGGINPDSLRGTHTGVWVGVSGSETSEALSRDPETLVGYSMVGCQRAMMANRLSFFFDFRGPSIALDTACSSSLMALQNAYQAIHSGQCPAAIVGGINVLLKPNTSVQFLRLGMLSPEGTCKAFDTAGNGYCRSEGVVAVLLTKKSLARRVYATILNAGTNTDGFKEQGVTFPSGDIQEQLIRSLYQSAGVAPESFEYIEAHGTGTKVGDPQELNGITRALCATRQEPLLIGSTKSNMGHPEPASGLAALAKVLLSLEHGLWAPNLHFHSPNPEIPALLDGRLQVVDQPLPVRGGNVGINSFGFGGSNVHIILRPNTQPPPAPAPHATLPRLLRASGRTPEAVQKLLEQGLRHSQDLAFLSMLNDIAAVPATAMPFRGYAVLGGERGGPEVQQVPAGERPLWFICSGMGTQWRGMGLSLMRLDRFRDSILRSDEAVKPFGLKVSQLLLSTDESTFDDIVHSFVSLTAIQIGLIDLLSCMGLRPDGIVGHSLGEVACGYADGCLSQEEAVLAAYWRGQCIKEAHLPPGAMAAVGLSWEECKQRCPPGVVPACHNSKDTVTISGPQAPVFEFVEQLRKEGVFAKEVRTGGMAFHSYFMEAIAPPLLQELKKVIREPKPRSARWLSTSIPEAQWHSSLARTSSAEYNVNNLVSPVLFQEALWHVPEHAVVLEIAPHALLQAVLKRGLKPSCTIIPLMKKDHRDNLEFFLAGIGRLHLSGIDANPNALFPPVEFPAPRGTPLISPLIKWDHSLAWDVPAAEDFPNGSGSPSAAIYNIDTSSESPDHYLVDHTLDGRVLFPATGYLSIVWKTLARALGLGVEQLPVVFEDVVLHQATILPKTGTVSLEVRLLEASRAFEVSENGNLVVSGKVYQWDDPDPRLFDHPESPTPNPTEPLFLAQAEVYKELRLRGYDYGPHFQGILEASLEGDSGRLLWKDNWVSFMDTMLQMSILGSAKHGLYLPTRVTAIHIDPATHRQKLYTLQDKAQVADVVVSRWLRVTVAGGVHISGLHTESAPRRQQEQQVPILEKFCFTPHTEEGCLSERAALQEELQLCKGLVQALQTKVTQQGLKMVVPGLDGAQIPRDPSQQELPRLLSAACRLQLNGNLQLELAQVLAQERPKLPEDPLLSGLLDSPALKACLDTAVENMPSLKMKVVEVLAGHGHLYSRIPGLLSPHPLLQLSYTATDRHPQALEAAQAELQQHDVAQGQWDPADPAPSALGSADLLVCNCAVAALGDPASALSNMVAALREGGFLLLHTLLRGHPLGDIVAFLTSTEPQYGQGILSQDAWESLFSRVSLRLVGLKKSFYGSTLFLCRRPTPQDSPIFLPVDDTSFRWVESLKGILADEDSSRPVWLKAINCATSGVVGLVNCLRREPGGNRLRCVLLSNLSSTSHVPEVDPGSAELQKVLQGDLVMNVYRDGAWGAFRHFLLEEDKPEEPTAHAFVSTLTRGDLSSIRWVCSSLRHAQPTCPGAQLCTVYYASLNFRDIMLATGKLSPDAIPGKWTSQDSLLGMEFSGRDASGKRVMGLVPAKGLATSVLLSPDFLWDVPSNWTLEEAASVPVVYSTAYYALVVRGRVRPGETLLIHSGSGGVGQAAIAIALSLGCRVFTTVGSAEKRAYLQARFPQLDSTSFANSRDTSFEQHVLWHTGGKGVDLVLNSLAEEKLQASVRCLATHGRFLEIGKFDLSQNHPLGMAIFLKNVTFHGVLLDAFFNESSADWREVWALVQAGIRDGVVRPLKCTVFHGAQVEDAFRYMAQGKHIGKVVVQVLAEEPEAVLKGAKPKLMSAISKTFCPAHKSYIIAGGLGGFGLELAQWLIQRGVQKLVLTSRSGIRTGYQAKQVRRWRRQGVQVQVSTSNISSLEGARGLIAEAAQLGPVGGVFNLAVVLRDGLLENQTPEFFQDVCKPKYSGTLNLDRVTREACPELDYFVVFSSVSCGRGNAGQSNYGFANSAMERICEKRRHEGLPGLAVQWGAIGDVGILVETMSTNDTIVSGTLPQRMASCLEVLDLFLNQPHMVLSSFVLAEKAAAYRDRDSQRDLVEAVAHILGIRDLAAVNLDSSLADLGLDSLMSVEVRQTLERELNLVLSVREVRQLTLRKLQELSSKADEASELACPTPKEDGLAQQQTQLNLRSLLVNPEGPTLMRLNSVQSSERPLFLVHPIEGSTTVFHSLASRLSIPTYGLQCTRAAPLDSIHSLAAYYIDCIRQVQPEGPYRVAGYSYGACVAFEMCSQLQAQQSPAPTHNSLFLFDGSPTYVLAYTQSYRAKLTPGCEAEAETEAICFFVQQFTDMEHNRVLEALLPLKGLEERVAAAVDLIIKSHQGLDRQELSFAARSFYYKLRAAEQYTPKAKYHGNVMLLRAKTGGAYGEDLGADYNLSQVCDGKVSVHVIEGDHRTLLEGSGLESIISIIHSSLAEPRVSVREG", "sequence of UniProt P28074 (whole entry, looked up)": "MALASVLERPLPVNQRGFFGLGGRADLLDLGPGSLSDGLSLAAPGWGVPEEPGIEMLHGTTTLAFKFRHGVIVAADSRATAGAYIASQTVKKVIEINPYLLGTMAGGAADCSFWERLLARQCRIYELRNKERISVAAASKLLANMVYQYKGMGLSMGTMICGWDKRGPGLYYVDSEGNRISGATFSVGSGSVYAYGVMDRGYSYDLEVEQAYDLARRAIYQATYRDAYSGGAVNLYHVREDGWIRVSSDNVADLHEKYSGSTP"}
{"Structure (SMILES)": "C=CCc1ccc(OCc2nnc(SCC(=O)Nc3ccc(Cl)cc3Cl)o2)c(OC)c1", "target": "Thymidylate synthase (TYMS, Homo sapiens, UniProt P04818)", "test": "enzyme activity, inhibitor", "IC50 [µM]": 3.67}
{"Structure (SMILES)": "COCc1nc(C(F)(F)F)[nH]c1-c1cc(C(=O)N2CC(c3ccc(C#N)cc3)C2)c(C)cc1C", "target": "Fatty acid synthase (FASN, Homo sapiens, UniProt P49327)", "test": "palmitate synthesis, inhibitor", "system": "human cells", "IC50 [µM]": 0.009}
{"Structure (SMILES)": "O=c1cc(-c2ccc(O)c(O)c2)oc2cc(O[C@@H]3O[C@H](CO)[C@@H](O)[C@H](O)[C@H]3O)cc(O)c12", "target": "Amine oxidase [flavin-containing] A (Maoa, Rattus norvegicus, UniProt P21396)", "test": "enzyme activity, inhibitor", "setting": "together with: serotonin", "IC50 [µM]": 400}
{"Structure (SMILES)": "N[C@@H](Cc1c[nH]c2ccc(OCc3cccc(I)c3)cc12)C(=O)O", "target": "Large neutral amino acids transporter small subunit 1 (SLC7A5, Homo sapiens, UniProt Q01650)", "test": "transporter uptake, inhibitor, radiometric", "IC50 [µM]": 16}
{"Structure (SMILES)": "CC(C)(C)ONc1nc(Nc2ccnc(C(F)(F)F)c2)nc(-c2cccc(C(F)(F)F)n2)n1", "target": "Isocitrate dehydrogenase [NADP], mitochondrial (IDH2, Homo sapiens, UniProt P48735, R172K)", "test": "enzyme activity, inhibitor", "setting": "lysate", "IC50 [µM]": 0.0379}
{"Structure (SMILES)": "CC(C)C[C@H](NC(=O)[C@H](CC(N)=O)NC(=O)[C@H](CC(C)C)NC(=O)[C@@H](NC(=O)[C@@H](NC(=O)[C@@H]1CCCN1C(=O)[C@H](CCCNC(=N)N)NC(=O)[C@H](CCCCN)NC(=O)[C@@H]1CCCN1C(=O)[C@H](CCCNC(=N)N)NC(=O)[C@H](CCCNC(=N)N)NC(=O)[C@H](CCCNC(=N)N)NC(=O)[C@H](CCCNC(=N)N)NC(=O)[C@H](CCC(N)=O)NC(=O)[C@H](CCCNC(=N)N)NC(=O)[C@H](CCCNC(=N)N)NC(=O)[C@H](CCCCN)NC(=O)[C@H](CCCCN)NC(=O)[C@H](CCCNC(=N)N)NC(=O)CNC(=O)[C@@H](N)Cc1ccc(O)cc1)[C@@H](C)O)[C@@H](C)O)C(=O)N[C@@H](Cc1ccccc1)C(N)=O", "target": "Mitogen-activated protein kinase 9 (MAPK9, Homo sapiens, UniProt P45984)", "test": "enzyme activity, inhibitor", "IC50 [µM]": "1.8 ± 0.2"}
{"Structure (SMILES)": "N=C(N)NCCCC(N)C(=O)NCC(=O)NC(CCCCNC(=N)NCCCSCC1OC(n2cnc3c(N)ncnc32)C(O)C1O)C(N)=O (centres unmarked)", "target": "Protein arginine N-methyltransferase 1 (PRMT1, Homo sapiens, UniProt Q99873)", "test": "inhibitor", "IC50 [µM]": "5.6 ± 0.1"}
{"Structure (SMILES)": "C=C(C)C1CCc2c(c(C)cc(O)c(=O)c2O)C1 (centres unmarked)", "target": "Ribonuclease HI (rnhA, Escherichia coli, UniProt P0A7Y4)", "test": "RNase H activity, inhibitor", "IC50 [µM]": 40}
{"Structure (SMILES)": "O=C(COc1ccc2ccccc2c1)N[C@@H](Cc1cn(CCNC(=O)c2ccc(S[C@@H]3O[C@H](CO)[C@H](O)[C@H](O)[C@H]3O)cc2)nn1)C(=O)NCCO", "target": "PA-I galactophilic lectin (lecA, Pseudomonas aeruginosa, UniProt Q05097)", "test": "ligand displacement, FP", "IC50 [µM]": 67.7}
{"Structure (SMILES)": "CC(C)c1nnc(-c2cccc(Nc3ncnn4ccc(CN5CCC(N)CC5)c34)c2)s1", "target": "AP2-associated protein kinase 1 (AAK1, Homo sapiens, UniProt Q2M2I8)", "test": "enzyme activity, inhibitor", "IC50 [µM]": 0.057}
{"Structure (SMILES)": "CCCCCCc1ccc(S(=O)(=O)N2CC2C(=O)N(CC)CC)cc1 (centres unmarked)", "target": "Protein disulfide-isomerase A3 (PDIA3, Homo sapiens, UniProt P30101)", "test": "enzyme activity, inhibitor, absorbance", "setting": "pH 7.6", "IC50 [µM]": "> 200"}
{"Structure (SMILES)": "CN(C)C/C=C/C(=O)Nc1ccc2nc(NCCCCCN(C)C)nc(NCCCCCCN(C)C)c2c1", "target": "TP53-binding protein 1, tandem tudor domain (Homo sapiens, UniProt Q12888)", "test": "methyl-lysine binding, TR-FRET", "IC50 [µM]": 20}
{"Structure (SMILES)": "N#C/C(C(=O)c1ccc(Cl)cc1Cl)=C1\\NC(=O)c2ccccc2N1", "target": "Cytoplasmic dynein 2 heavy chain 1 (DYNC2H1, Homo sapiens, UniProt Q8NCM8)", "test": "ATPase activity, inhibitor", "IC50 [µM]": 55}
{"Structure (SMILES)": "C=C(NC(=O)C(=C)NC(=O)c1csc(C2=NC3c4csc(n4)C4NC(=O)c5csc(n5)C(C(C)(O)C(C)O)NC(=O)C5CSC(=N5)C(=CC)NC(=O)C(C(C)O)NC(=O)c5csc(n5)C3(CC2)NC(=O)C(C(C)CC)NC(=O)C(=C)NC(=O)C(C)NC(=O)C(C(C)CC)NC2C=Cc3c(C(C)O)cc(nc3C2O)C(=O)OC4C)n1)C(N)=O (centres unmarked)", "target": "Proteasome Macropain subunit MB1 (PSMB5, Homo sapiens, UniProt P28074)", "test": "chymotrypsin-like activity, inhibitor", "system": "purified 20S proteasome", "setting": "15 min preincubation, 37 °C, together with: Suc-Leu-Leu-Val-Tyr-AMC substrate", "IC50 [µM]": "0.27 ± 0.03"}
{"note": "Excerpt of the above:"}
{"Structure (SMILES)": "O=C(COc1ccc2ccccc2c1)N[C@@H](Cc1cn(CCNC(=O)c2ccc(S[C@@H]3O[C@H](CO)[C@H](O)[C@H](O)[C@H]3O)cc2)nn1)C(=O)NCCO", "target": "PA-I galactophilic lectin (lecA, Pseudomonas aeruginosa, UniProt Q05097)", "test": "ligand displacement, FP", "IC50 [µM]": 67.7}
